Published values pooled from the literature.
Compare with care: the assays were run in different laboratories. Values joined by “and” are separate records of one study, mostly repeats; a detail may differ.
BIRC2 BIR3 domain: Baculoviral IAP repeat-containing protein 2, BIR3 domain (BIRC2, Homo sapiens, UniProt Q13490)
HDAC2: Histone deacetylase 2 (HDAC2, Homo sapiens, UniProt Q92769)
Proline--tRNA ligase: Proline--tRNA ligase (Plasmodium falciparum, UniProt Q8I5R7)
CA9: Carbonic anhydrase 9 (CA9, Homo sapiens, UniProt Q16790)
NOS3: Nitric oxide synthase 3 (NOS3, Bos taurus, UniProt P29473)
GRPR: Gastrin-releasing peptide receptor (GRPR, Homo sapiens, UniProt P30550)

SMILES	target	test	test system	setting	how to read	selectivity ratio
CN[C@@H](C)C(=O)N[C@H]1CN(C(=O)Cc2ccccc2)CC[C@H]2CC[C@@H](C(=O)NCc3ccc(-c4ccccc4)cc3)N2C1=O	BIRC2 BIR3 domain	fluorescence polarization			relative to: Ki XIAP over Ki cIAP1	92
O=C(CCCCCCNCc1ccccc1)NO	HDAC2	deacetylase activity, inhibitor, fluorescence		with: Boc-Lys(Ac)-AMC substrate	relative to: IC50 HDAC2 over IC50 HDAC1	9.1
CN[C@@H](C)C(=O)N[C@H]1CN(C(=O)Cc2ccccc2)CC[C@H]2CC[C@@H](C(=O)NCc3ccccc3Br)N2C1=O	BIRC2 BIR3 domain	fluorescence polarization			relative to: Ki XIAP over Ki cIAP1	65
Cc1cc(N2CC[C@](C#N)(C3(C)CC3)C2=O)cc(C(=O)NCc2cc(F)cc(-c3cnn(C)c3)c2)n1	Proline--tRNA ligase	aminoacylation activity, inhibitor, malachite green			relative to: human over P. falciparum IC50	~1 and 1.1
CNCc1c(OCc2ccc(F)cc2)ccc2ccccc12	Sodium-dependent noradrenaline transporter (SLC6A2, Homo sapiens, UniProt P23975)	binding			relative to: Ki SERT over NET	< 2 fold
NS(=O)(=O)c1ccc(Nc2nc3nccc(-c4ccc5ccccc5c4)n3n2)cc1	CA9	inhibitor			relative to: Ki hCA IV over Ki CA9	142
COc1ccc(CN(CCCCCCC(=O)NO)Cc2ccc(OC)c(OC)c2)cc1OC	HDAC2	deacetylase activity, inhibitor, fluorescence		with: Boc-Lys(Ac)-AMC substrate	relative to: IC50 HDAC2 over IC50 HDAC1	4.1
Cc1cc(N)nc(C[C@@H]2CNC[C@@H]2OCCCCCc2cccc(N)n2)c1	NOS3	enzyme activity, inhibitor			relative to: Ki NOS3 over Ki nNOS	1120
CN[C@@H](C)C(=O)N[C@H]1CN(C(=O)Cc2ccccc2)CC[C@H]2CC[C@@H](C(=O)NCc3ccccc3C(F)(F)F)N2C1=O	BIRC2 BIR3 domain	fluorescence polarization			relative to: Ki XIAP over Ki cIAP1	175
N[C@@H](CCC(=O)N[C@@H](CS[Se]Cc1ccc(-c2cccc(C(O)c3ccc(Cl)c(Cl)c3)c2)cc1)C(=O)NCC(=O)O)C(=O)O (some centres unmarked)	Tyrosine-protein phosphatase non-receptor type 7 (PTPN7, Homo sapiens, UniProt P35236)	enzyme activity		with: pNPP, GSH 1 mM	relative to: IC50 PTPN7 over STEP	1.7
COc1cc(-c2ccnc3nc(Nc4ccc(S(N)(=O)=O)cc4)nn23)cc(OC)c1OC	CA9	inhibitor			relative to: Ki hCA I over Ki CA9	16.7
CC(C)C[C@@H](CN[C@@H](Cc1ccc(Cl)cc1)C(N)=O)NC(=O)[C@H](Cc1c[nH]cn1)NC(=O)CNC(=O)[C@@H](NC(=O)[C@H](C)NC(=O)[C@H](Cc1c[nH]c2ccccc12)NC(=O)[C@H](CCC(N)=O)NC(=O)[C@H](N)Cc1ccccc1)C(C)C	GRPR	binding, radioligand binding	transfected BALB/3T3		relative to: GRPR over NMBR affinity	> 7400 fold
Cc1cc(N)nc(C[C@@H]2CNC[C@@H]2OCCCCOc2cc(F)cc(Cl)c2)c1	NOS3	enzyme activity, inhibitor			relative to: Ki NOS3 over Ki nNOS	37
CN(C)CCNC(=O)c1cccc2c(NCCCCc3c(N)nc(N)nc3N)c3ccccc3nc12	(CCUG)6 RNA	binding, ITC			relative to: Kd RNA A over Kd (CCUG)6	1.4
Cc1cc(N2CCC(CO)(C3CC3)C2=O)cc(C(=O)NCc2cc(F)cc(-c3cnn(C)c3)c2)n1 (centres unmarked)	Proline--tRNA ligase	aminoacylation activity, inhibitor, malachite green			relative to: human over P. falciparum IC50	19
CN[C@@H](C)C(=O)N[C@H]1CN(C(=O)Cc2ccccc2)CC[C@H]2CC[C@@H](C(=O)NCc3ccccc3)N2C1=O	BIRC2 BIR3 domain	fluorescence polarization			relative to: Ki XIAP over Ki cIAP1	69
CCC[C@H]1CC[C@H](c2ccc(C(=O)NC[C@@H]3[C@@H](O)[C@@H](O)[C@H]4[C@H](O)CCCN43)cc2)CC1	Alpha-mannosidase 2 (Homo sapiens, UniProt Q16706)	inhibitor		with: fluorogenic mannoside substrate	relative to: lysosomal over Golgi mannosidase Ki	9.3
O=C(O)C(=O)O.O=C(c1ccc(NCCF)cc1)C1CCN(C2Cc3ccccc3CC2O)CC1 (single isomer, unassigned; (+))	sigma-1 receptor and VAChT	binding	guinea pig		relative to: Ki VAChT over Ki sigma-1	541

SMILES	target	test	test system	setting	how to read	selectivity ratio
O=C(c1ccccc1)c1cc(O)c(-c2cc(Cl)cc(Cl)c2)c(O)c1	Cannabinoid receptor 2 (CNR2, Homo sapiens, UniProt P34972)				relative to: Ki CB1 over Ki CB2	39.4
O=C(CCCCCCNCc1ccc([N+](=O)[O-])cc1)NO	HDAC2	deacetylase activity, inhibitor, fluorescence		with: Boc-Lys(Ac)-AMC substrate	relative to: IC50 HDAC2 over IC50 HDAC1	13
CN[C@@H](C)C(=O)N[C@H]1CN(C(=O)Cc2ccccc2)CC[C@H]2CC[C@@H](C(=O)NCc3ccc(C(N)=O)cc3)N2C1=O	BIRC2 BIR3 domain	fluorescence polarization			relative to: Ki XIAP over Ki cIAP1	239
O=C(CCCCCCNCc1cccnc1)NO	HDAC2	deacetylase activity, inhibitor, fluorescence		with: Boc-Lys(Ac)-AMC substrate	relative to: IC50 HDAC2 over IC50 HDAC1	7.4
CN[C@@H](C)C(=O)N[C@H]1CN(C(=O)Cc2ccccc2)CC[C@H]2CC[C@@H](C(=O)NCc3ccc(C)cc3)N2C1=O	BIRC2 BIR3 domain	fluorescence polarization			relative to: Ki XIAP over Ki cIAP1	613
Cc1cc(CN(CCCCCCC(=O)NO)Cc2ccc(F)c(C)c2)ccc1F	HDAC2	deacetylase activity, inhibitor, fluorescence		with: Boc-Lys(Ac)-AMC substrate	relative to: IC50 HDAC2 over IC50 HDAC1	4.4
N=C(N)NCCC[C@@H]1NC(=O)[C@H](Cc2c[nH]c3ccccc23)NC(=O)[C@H](CCCNC(=N)N)NC(=O)[C@H](Cc2c[nH]c3ccccc23)NC(=O)[C@H](CCCNC(=N)N)NC(=O)[C@H](Cc2c[nH]c3ccccc23)NC(=O)[C@H](CCCNC(=N)N)NC(=O)[C@H](Cc2c[nH]c3ccccc23)NC(=O)[C@H](CCCNC(=N)N)NC(=O)[C@H](Cc2c[nH]c3ccccc23)NC(=O)[C@H](CCCNC(=N)N)NC(=O)[C@H](Cc2c[nH]c3ccccc23)NC(=O)[C@H](CCCNC(=N)N)NC(=O)[C@H](Cc2c[nH]c3ccccc23)NC(=O)[C@H](CCCNC(=N)N)NC(=O)[C@H](Cc2c[nH]c3ccccc23)NC(=O)[C@H](CCCNC(=N)N)NC(=O)[C@H](Cc2c[nH]c3ccccc23)NC1=O	Proto-oncogene tyrosine-protein kinase Src (SRC, Homo sapiens, UniProt P12931)	enzyme activity			relative to: IC50 Lck over IC50 SRC	12
O=C(Nc1ccc(C(=O)Nc2ccc(C(=O)Nc3ccc(S(=O)(=O)O)c4cc(S(=O)(=O)O)cc(S(=O)(=O)O)c34)cc2)cc1)Nc1ccc(C(=O)Nc2ccc(C(=O)Nc3ccc(S(=O)(=O)O)c4cc(S(=O)(=O)O)cc(S(=O)(=O)O)c34)cc2)cc1	Chymotrypsinogen A (Bos taurus, UniProt P00766)				relative to: HNE over Chymotrypsinogen A	≥ 818 fold
COc1ccc(CNCCCCCCC(=O)NO)cc1OC	HDAC2	deacetylase activity, inhibitor, fluorescence		with: Boc-Lys(Ac)-AMC substrate	relative to: IC50 HDAC2 over IC50 HDAC1	8.6
CSCC[C@H](NC(=O)[C@H](CC(C)C)NC(=O)[C@H](Cc1c[nH]cn1)NC(=O)CNC(=O)[C@@H](NC(=O)[C@H](C)NC(=O)[C@H](Cc1c[nH]c2ccccc12)NC(=O)[C@H](Cc1c[nH]cn1)NC(=O)[C@H](CC(N)=O)NC(=O)CN)C(C)C)C(N)=O	GRPR	binding	HuTu80 and BALB/3T3 hGRPR		relative to: GRPR over NMBR	> 200 fold
Cc1cc(N)nc(C[C@H]2CNC[C@H]2OCCCCCc2cccc(F)c2)c1	NOS3	enzyme activity, inhibitor			relative to: Ki NOS3 over Ki nNOS	4
CN[C@@H](C)C(=O)N[C@H]1CN(C(=O)Cc2ccccc2)CC[C@H]2CC[C@@H](C(=O)NCc3cccc(C(F)(F)F)c3)N2C1=O	BIRC2 BIR3 domain	fluorescence polarization			relative to: Ki XIAP over Ki cIAP1	117
Cc1cc(N2CC[C@@](C#N)(C3CC3)C2=O)cc(NC(=O)Cc2ccccc2)n1	Proline--tRNA ligase	binding, microscale thermophoresis			relative to: human over P. falciparum Kd	0.1
CN[C@@H](C)C(=O)N[C@H]1CN(C(=O)Cc2ccccc2)CC[C@H]2CC[C@@H](C(=O)NCc3ccc(F)cc3)N2C1=O	BIRC2 BIR3 domain	fluorescence polarization			relative to: Ki XIAP over Ki cIAP1	218
O=C(CCCCCCN(Cc1cccnc1)Cc1cccnc1)NO	HDAC2	deacetylase activity, inhibitor, fluorescence		with: Boc-Lys(Ac)-AMC substrate	relative to: IC50 HDAC2 over IC50 HDAC1	8.3
Cc1cc(N)nc(C[C@H]2CNC[C@H]2OCCC/C=C/c2cccc(F)c2)c1	NOS3	enzyme activity, inhibitor			relative to: Ki NOS3 over Ki nNOS	4
COc1cncc(-c2cc(F)cc(CNC(=O)c3cc(N4CC[C@@](C#N)(C5CC5)C4=O)cc(C)n3)c2)c1	Proline--tRNA ligase	aminoacylation activity, inhibitor, malachite green			relative to: human over P. falciparum IC50	10.6

Some of these lines once more:
SMILES	target	test	test system	setting	how to read	selectivity ratio
N=C(N)NCCC[C@@H]1NC(=O)[C@H](Cc2c[nH]c3ccccc23)NC(=O)[C@H](CCCNC(=N)N)NC(=O)[C@H](Cc2c[nH]c3ccccc23)NC(=O)[C@H](CCCNC(=N)N)NC(=O)[C@H](Cc2c[nH]c3ccccc23)NC(=O)[C@H](CCCNC(=N)N)NC(=O)[C@H](Cc2c[nH]c3ccccc23)NC(=O)[C@H](CCCNC(=N)N)NC(=O)[C@H](Cc2c[nH]c3ccccc23)NC(=O)[C@H](CCCNC(=N)N)NC(=O)[C@H](Cc2c[nH]c3ccccc23)NC(=O)[C@H](CCCNC(=N)N)NC(=O)[C@H](Cc2c[nH]c3ccccc23)NC(=O)[C@H](CCCNC(=N)N)NC(=O)[C@H](Cc2c[nH]c3ccccc23)NC(=O)[C@H](CCCNC(=N)N)NC(=O)[C@H](Cc2c[nH]c3ccccc23)NC1=O	Proto-oncogene tyrosine-protein kinase Src (SRC, Homo sapiens, UniProt P12931)	enzyme activity			relative to: IC50 Lck over IC50 SRC	12
O=C(Nc1ccc(C(=O)Nc2ccc(C(=O)Nc3ccc(S(=O)(=O)O)c4cc(S(=O)(=O)O)cc(S(=O)(=O)O)c34)cc2)cc1)Nc1ccc(C(=O)Nc2ccc(C(=O)Nc3ccc(S(=O)(=O)O)c4cc(S(=O)(=O)O)cc(S(=O)(=O)O)c34)cc2)cc1	Chymotrypsinogen A (Bos taurus, UniProt P00766)				relative to: HNE over Chymotrypsinogen A	≥ 818 fold
COc1ccc(CNCCCCCCC(=O)NO)cc1OC	HDAC2	deacetylase activity, inhibitor, fluorescence		with: Boc-Lys(Ac)-AMC substrate	relative to: IC50 HDAC2 over IC50 HDAC1	8.6
CSCC[C@H](NC(=O)[C@H](CC(C)C)NC(=O)[C@H](Cc1c[nH]cn1)NC(=O)CNC(=O)[C@@H](NC(=O)[C@H](C)NC(=O)[C@H](Cc1c[nH]c2ccccc12)NC(=O)[C@H](Cc1c[nH]cn1)NC(=O)[C@H](CC(N)=O)NC(=O)CN)C(C)C)C(N)=O	GRPR	binding	HuTu80 and BALB/3T3 hGRPR		relative to: GRPR over NMBR	> 200 fold
